Assay results of several laboratories.
Organism: Streptococcus pneumoniae

| Structure (SMILES) | test | test system | conditions | MIC |
| --- | --- | --- | --- | --- |
| c1ccc(CN2CCOCCOCCN(CCCCCCCCCCCCCCN3CCOCCOCCN(CCCCCCCCCCCCCCN4CCOCCOCCN(Cc5ccccc5)CCOCCOCC4)CCOCCOCC3)CCOCCOCC2)cc1 | – | R:Levo | – | 6 µM |
| CC(C=CC(O)=C1C(=O)CNC1=O)=CC(C)C1OC2(C)OC(C1C)C(O)C1OC12C (stereo not shown) | – | ATCC 49619 | – | > 100 µM |
| Oc1c(Br)c(Cl)c(Br)c2nc3c(C(F)(F)F)cc(C(F)(F)F)cc3nc12 | microbial growth, broth dilution | 6303 | – | 1.56 µM |
| CN(C)c1cc(CN2CCc3ccccc3C2)c(O)c2c1C[C@H]1C[C@H]3[C@H](N(C)C)C(O)=C(C(N)=O)C(=O)[C@@]3(O)C(O)=C1C2=O | – | 157E | 50% mouse serum | 4 µg/mL |
| Oc1c(Br)cc(Br)c2nc3cc(Br)ccc3nc12 | microbial growth, broth dilution | 6303 | – | 0.39 µM |
| Cc1csc(NCc2cc(N(C)C)c3c(c2O)C(=O)C2=C(O)[C@]4(O)C(=O)C(C(N)=O)=C(O)[C@@H](N(C)C)[C@@H]4C[C@@H]2C3)n1 | microbial growth, broth dilution | – | – | 4 µg/mL |
| Oc1c(Br)cc(Br)c2nc3c(C(F)(F)F)cc(C(F)(F)F)cc3nc12 | microbial growth, broth dilution | 6303 | – | 0.08 µM |
| COCCNCc1cc(N(C)C)c2c(c1O)C(=O)C1=C(O)[C@]3(O)C(=O)C(C(N)=O)=C(O)[C@@H](N(C)C)[C@@H]3C[C@@H]1C2 | – | ATCC 700905, Tet M ribosome protection | – | 0.5 µg/mL |
| CC(C=CC(O)=C1C(=O)CNC1=O)=CC(C)C1OC2(C)OC(C(=O)C(O)C2(C)O)C1C (stereo not shown) | – | ATCC 49619 | – | > 100 µM |
| CNC1=C([N+](=O)[O-])C2(C(=O)Nc3ccc(Cl)cc32)C2=C(O1)C(=O)c1ccccc1C2=O (stereo not shown) | – | MTCC 655 | – | 125 µg/mL |
| Oc1c(Br)cc(Br)c2nc3cc(I)ccc3nc12 | microbial growth, broth dilution | 6303 | – | 0.2 µM |
| c1ccc(CN2CCOCCOCCN(CCCCCCCCCCN3CCOCCOCCN(CCCCCCCCCCN4CCOCCOCCN(Cc5ccccc5)CCOCCOCC4)CCOCCOCC3)CCOCCOCC2)cc1 | – | R:Levo | – | 6 µM |
| CN(C)c1cc(CNCc2ccc(O)cc2)c(O)c2c1C[C@H]1C[C@H]3[C@H](N(C)C)C(O)=C(C(N)=O)C(=O)[C@@]3(O)C(O)=C1C2=O | microbial growth, broth dilution | – | – | 1 µg/mL |

Some of these lines once more:
| Structure (SMILES) | test | test system | conditions | MIC |
| --- | --- | --- | --- | --- |
| c1ccc(CN2CCOCCOCCN(CCCCCCCCCCN3CCOCCOCCN(CCCCCCCCCCN4CCOCCOCCN(Cc5ccccc5)CCOCCOCC4)CCOCCOCC3)CCOCCOCC2)cc1 | – | R:Levo | – | 6 µM |
